Experimental data from different studies.
Every numbered part comes from another study and shows a few of its results, in no order.

Set 1
Target: Sal-like protein 4, full length isoform B (SALL4, Homo sapiens, UniProt Q9UJQ4-2, residues 1-616)
Technique: universal PBM
Form: double-stranded DNA, one strand shown
Sample: in vitro
Concentration: not given
Notes: 8-mer, flanks averaged, mean of replicates
Direction: higher = stronger binding
Endpoint: E-score
Sequence = CCAGTTCC; value = -0.276
Sequence = CGATAATC; value = 0.0476
Sequence = AATAGCGG; value = -0.0204
Sequence = ATCAACCC; value = 0.077
Sequence = ATATTGGC; value = 0.234
Sequence = CCTCTCCA; value = -0.178
Sequence = AGTTGCGG; value = -0.0689
Sequence = CAGACCAC; value = -0.117
Sequence = ACACCTAT; value = 0.0558
Sequence = AACAGCCC; value = -0.198
Sequence = CGGCTTCA; value = -0.0341
Sequence = GGCTAGTA; value = 0.0599
Sequence = GAAATTCC; value = 0.0668
Sequence = GGGCCTAC; value = -0.321
Sequence = ACCTTGAG; value = 0.0735
Sequence = CCGGCGAG; value = -0.296
Sequence = CCTCCAGG; value = -0.254
Sequence = GTTCAGCA; value = -0.115
Sequence = CCTGTCCA; value = -0.201
Sequence = GATCTTTA; value = 0.183
Sequence = CCGATGGC; value = -0.3
Sequence = CAAGTATC; value = 0.0194
Sequence = CGCTTGAA; value = -0.0121
Sequence = ACCGCGAT; value = -0.0335
Sequence = CACCAAAA; value = 0.214

Set 2
Target: RNA binding protein fox-1 homolog 2, RRM domain, GST-SBP tag (RBFOX2, Homo sapiens, UniProt O43251-10, residues 100-194)
Technique: RNA Bind-n-Seq
Form: RNA
Sample: in vitro
Concentration: 365 nM
Notes: natural RNA segment, single round, ends assumed
Baseline: no-protein control
Direction: higher = stronger binding
Endpoint: RBNS enrichment (R)
All sequences stand within: GGGAGUUCUACAGUCCGACGAUC … UGGAAUUCUCGGGUGCCAA
Target sequence (chain): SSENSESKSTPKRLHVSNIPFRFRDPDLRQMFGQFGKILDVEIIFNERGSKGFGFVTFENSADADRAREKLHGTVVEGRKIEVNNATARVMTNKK
Sequence = CCUCCCCGCGGCAGCGAUGGCCCGAGCCAUGAGAGUGAGGACUUUCCGCGCCCAUUGGUGACCCUUCCAGGCAGACAGCCUCAGCAGCGCCCCUGGUGGACAGGAUGGUU; value = 0.19
Sequence = AGGCCACCCUGUAGUACAGGGAUGAGUCUUGGUGUGUUCUGCAGGGACAGGCCUGGAUGAUCUAGCUCAUACCAAAGGACCUUGUUCUGAGAGGUUCUUGCCUGCAGGAG; value = 1.76
Sequence = CUGCCUUGGCAAGCCUAUUUUUGUGACCUGGCAGCACAGAUUUAACACUAUUCGUUAAAAGCACUUUUUUUUUAAUGCGUUUAAUCCCUUAUAAAGAAUGCCAAUUAAGU; value = 3.23
Sequence = GGAAUGAAACGGAGUGAACAUGAGCCCAGCUGAGAGAGGAGCAGGAAUGUGUGAAAAACAGCUGCUCUCCUUGUCCCAGCUUUGUGAUUGAGCCCUCUGUCUUGCUCUCU; value = 0.255
Sequence = UGUAAAUACUUUUUUCCAUUUCACACCGUUGUAUUAUAAGUGUAUAUGGCGACUCCUUUUCCAGAAACUUUUCUUACCUGUUGGUUGUCUUGUUUCCUGGGUUGUUUUUA; value = 0.461
Sequence = UGUUACAAUACUGCUGCUUUGAGCAAUUUUGUUUCUCUUCAUUGUCUGUUAGGGAAAUCACCAGCUUUGGCAUCUUAACAACAAACAGUGGAUGGGUAAUUUUUAUUUCU; value = 0.383
Sequence = CCAGGAUGCAGCAAGCAGCAGCAGGGGCUGACAGCAGGCUUACUGCCAUCAACAUUGCUUGAAAUGCCUCUAUGUUCUGAAUAAAGAAAAACCAUAAUUGCUUGUGGUGA; value = 0.516
Sequence = CACGGAGGGCCGCCCGCCACGCCCCGCGCUCAACUGCUCCCGUGGAAGAUUAAAGGGCUGAAUCAUGGUGCUGACCUGGCUCUUUGUGCUGCAUGCCUAGGGGCAGGGUU; value = 3.56

Set 3
Target: Histone acetyltransferase KAT6A, winged helix 1, GST fusion (KAT6A, Homo sapiens, UniProt Q92794, residues 1-85)
Technique: protein binding microarray
Form: double-stranded DNA, one strand shown
Sample: in vitro
Concentration: not given
Notes: 8-mer, flanks averaged, mean of 2 arrays, mostly near background
Baseline: not given
Direction: higher = stronger binding
Endpoint: E-score
Residues (chain): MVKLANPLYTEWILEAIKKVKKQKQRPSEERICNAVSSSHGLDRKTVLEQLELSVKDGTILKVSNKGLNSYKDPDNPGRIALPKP
Sequence = AAGCAGGT; value = -0.013
Sequence = ACTATAAG; value = 0.0187
Sequence = ACTGTAGC; value = -0.0699
Sequence = TGCCACCA; value = -0.267
Sequence = GTAGTTGA; value = -0.0675
Sequence = AAGCGGGT; value = 0.292
Sequence = AGCCCGCC; value = 0.36
Sequence = TCAGCCGA; value = 0.0935
Sequence = ACATTAAC; value = -0.0938
Sequence = TGAAGTAA; value = -0.155
Sequence = GAGAGACC; value = -0.081
Sequence = ATTAACGC; value = 0.255
Sequence = ACCCTCCC; value = 0.107
Sequence = CTCGATGA; value = -0.0444
Sequence = AGGTGATA; value = -0.209
Sequence = AGATGTAA; value = -0.053
Sequence = ATGGCCGA; value = 0.0139
Sequence = ACACAGAG; value = -0.125
Sequence = ACGAGTCT; value = -0.161
Sequence = CATTGGCA; value = -0.272
Sequence = ACCTTGAC; value = -0.0424
Sequence = TGCTTCAA; value = -0.187
Sequence = ATTCGGTA; value = 0.0268
Sequence = GCGCATCC; value = 0.385
Sequence = AGAGTTTG; value = -0.15

Set 4
Target: TAR DNA-binding protein 43, full length, His tag (TARDBP, Homo sapiens, UniProt Q13148, residues 1-414)
Technique: RNA Bind-n-Seq
Form: RNA
Sample: in vitro
Concentration: 20 nM
Notes: 6-mer, flanks averaged, single round
Together with: 150 mM KCl
Baseline: input library
Direction: higher = stronger binding
Endpoint: 6-mer enrichment (R)
Sequence = CCACAU; value = 0.629
Sequence = UCAACC; value = 0.57
Sequence = GUGAAG; value = 1.67
Sequence = UCGGGC; value = 1.63
Sequence = CGACGA; value = 0.844
Sequence = CGGUGA; value = 1.3
Sequence = UCCAUA; value = 0.571
Sequence = GGUGGU; value = 2.95
Sequence = AAGUGC; value = 0.811
Sequence = CGGGAG; value = 4.6
Sequence = GCGUCU; value = 0.809
Sequence = GUCAAG; value = 0.992
Sequence = GUUUCG; value = 0.777
Sequence = CACGGC; value = 0.917
Sequence = CGUGAG; value = 1.42
Sequence = GCUUUA; value = 0.632
Sequence = GAGCUC; value = 0.819
Sequence = CCCUUG; value = 0.748
Sequence = UGUCCU; value = 0.63

A few entries again (set 3):
Sequence = AAGCAGGT; value = -0.013
Sequence = ACCTTGAC; value = -0.0424
Sequence = ATGGCCGA; value = 0.0139
Sequence = GTAGTTGA; value = -0.0675
Sequence = ACCCTCCC; value = 0.107
Sequence = CATTGGCA; value = -0.272
